Assay results pooled from the literature.
A part holds a random share of what one study measured.
Chain of UniProt P29322 (whole entry, looked up): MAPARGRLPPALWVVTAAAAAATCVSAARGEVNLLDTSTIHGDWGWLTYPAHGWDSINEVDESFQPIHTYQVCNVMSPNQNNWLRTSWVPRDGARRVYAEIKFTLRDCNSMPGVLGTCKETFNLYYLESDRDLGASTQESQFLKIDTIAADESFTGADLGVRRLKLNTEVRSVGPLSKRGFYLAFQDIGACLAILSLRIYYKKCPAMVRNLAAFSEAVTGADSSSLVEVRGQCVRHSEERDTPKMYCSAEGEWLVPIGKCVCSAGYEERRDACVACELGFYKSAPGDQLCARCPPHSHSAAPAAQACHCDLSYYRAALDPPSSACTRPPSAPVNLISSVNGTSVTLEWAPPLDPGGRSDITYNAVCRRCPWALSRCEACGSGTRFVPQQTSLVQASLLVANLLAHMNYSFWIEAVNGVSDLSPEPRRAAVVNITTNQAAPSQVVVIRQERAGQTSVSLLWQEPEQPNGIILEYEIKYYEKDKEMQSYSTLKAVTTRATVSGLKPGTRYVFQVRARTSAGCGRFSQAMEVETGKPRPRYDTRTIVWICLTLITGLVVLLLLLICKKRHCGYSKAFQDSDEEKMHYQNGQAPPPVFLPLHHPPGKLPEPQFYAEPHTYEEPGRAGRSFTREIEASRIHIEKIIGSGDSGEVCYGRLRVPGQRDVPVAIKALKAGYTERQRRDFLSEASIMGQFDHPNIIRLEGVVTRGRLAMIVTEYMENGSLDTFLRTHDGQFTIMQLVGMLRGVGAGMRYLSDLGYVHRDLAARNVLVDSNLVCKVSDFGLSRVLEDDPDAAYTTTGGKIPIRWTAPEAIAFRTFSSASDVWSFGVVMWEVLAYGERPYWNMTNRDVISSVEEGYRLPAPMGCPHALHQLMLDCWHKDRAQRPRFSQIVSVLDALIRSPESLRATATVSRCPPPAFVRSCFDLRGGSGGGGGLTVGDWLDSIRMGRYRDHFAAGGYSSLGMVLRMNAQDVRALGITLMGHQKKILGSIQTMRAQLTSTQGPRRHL
Chain of UniProt P23443 (whole entry, looked up): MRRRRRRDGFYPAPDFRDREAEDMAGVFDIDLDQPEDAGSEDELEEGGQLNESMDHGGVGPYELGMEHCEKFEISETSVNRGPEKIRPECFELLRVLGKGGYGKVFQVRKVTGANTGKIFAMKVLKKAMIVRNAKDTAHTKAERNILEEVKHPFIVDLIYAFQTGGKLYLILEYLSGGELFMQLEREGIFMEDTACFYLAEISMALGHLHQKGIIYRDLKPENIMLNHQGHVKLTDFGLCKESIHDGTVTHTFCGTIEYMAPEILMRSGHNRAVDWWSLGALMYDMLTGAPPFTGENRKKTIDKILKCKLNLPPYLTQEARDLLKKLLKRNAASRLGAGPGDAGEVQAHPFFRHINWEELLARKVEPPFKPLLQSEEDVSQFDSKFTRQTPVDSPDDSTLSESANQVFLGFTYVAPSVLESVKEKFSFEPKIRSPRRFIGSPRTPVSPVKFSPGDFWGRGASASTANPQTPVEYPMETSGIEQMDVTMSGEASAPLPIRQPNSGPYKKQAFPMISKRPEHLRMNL
Chain of UniProt Q16513 (whole entry, looked up): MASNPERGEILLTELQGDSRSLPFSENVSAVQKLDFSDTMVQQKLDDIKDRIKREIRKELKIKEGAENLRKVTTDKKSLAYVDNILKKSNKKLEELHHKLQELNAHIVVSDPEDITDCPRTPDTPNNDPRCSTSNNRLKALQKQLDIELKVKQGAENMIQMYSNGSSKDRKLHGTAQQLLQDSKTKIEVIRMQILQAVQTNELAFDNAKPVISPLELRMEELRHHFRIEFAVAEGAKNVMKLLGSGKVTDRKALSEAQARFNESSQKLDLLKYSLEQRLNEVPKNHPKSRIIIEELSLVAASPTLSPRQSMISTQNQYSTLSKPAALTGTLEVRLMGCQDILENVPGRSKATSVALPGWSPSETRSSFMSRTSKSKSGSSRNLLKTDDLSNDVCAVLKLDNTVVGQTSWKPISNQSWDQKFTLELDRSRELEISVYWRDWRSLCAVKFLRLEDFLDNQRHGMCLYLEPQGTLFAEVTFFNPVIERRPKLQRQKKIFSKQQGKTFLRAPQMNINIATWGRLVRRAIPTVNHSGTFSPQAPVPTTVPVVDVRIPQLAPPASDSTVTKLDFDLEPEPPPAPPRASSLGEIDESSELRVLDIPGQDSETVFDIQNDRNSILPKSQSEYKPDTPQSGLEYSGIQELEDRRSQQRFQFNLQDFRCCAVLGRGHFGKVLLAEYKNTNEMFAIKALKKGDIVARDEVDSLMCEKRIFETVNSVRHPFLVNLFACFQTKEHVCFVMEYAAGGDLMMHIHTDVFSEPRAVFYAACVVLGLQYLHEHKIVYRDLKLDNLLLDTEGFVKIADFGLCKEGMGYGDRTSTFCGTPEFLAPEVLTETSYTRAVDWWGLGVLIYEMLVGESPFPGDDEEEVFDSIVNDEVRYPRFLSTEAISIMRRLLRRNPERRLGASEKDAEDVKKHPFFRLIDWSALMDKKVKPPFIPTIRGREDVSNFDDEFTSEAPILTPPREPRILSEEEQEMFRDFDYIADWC
Chain of UniProt P53350 (whole entry, looked up): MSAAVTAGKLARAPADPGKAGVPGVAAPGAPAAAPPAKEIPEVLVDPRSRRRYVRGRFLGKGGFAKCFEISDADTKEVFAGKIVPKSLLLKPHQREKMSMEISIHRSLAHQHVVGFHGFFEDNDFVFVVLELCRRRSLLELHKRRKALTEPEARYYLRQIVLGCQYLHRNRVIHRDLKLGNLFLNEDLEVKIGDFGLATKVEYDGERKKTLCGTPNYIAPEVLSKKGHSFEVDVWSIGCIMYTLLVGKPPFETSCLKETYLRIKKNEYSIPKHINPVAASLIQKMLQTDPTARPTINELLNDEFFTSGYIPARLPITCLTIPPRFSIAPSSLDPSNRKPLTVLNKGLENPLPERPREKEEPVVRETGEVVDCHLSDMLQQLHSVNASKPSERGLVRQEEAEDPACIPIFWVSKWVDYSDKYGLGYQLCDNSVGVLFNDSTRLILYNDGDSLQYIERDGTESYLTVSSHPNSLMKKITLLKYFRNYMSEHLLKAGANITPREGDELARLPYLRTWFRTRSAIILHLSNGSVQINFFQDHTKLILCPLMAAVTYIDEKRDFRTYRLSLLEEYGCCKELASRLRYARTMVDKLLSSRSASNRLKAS
Chain of UniProt O75582 (whole entry, looked up): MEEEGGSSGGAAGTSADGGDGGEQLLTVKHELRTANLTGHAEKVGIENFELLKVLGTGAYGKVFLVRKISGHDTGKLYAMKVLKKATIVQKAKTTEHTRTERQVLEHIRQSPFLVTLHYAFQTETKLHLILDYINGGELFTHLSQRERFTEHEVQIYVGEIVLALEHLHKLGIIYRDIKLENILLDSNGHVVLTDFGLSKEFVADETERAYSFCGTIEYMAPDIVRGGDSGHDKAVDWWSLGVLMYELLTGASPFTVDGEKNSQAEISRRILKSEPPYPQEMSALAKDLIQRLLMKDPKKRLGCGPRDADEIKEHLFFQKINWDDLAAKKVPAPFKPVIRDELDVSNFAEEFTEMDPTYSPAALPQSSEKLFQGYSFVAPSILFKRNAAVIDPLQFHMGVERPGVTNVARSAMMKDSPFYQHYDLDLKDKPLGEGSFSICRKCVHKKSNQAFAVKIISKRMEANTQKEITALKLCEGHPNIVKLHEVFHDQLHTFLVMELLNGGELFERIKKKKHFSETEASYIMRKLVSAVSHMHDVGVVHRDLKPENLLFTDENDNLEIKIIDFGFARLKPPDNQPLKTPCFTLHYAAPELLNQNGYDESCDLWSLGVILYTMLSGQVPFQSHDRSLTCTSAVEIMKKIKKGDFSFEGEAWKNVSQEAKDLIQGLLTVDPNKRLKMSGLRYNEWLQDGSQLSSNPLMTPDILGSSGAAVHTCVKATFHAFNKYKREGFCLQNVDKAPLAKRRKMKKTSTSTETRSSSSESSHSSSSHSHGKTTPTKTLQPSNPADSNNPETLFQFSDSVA
Chain of UniProt Q9H2K8 (whole entry, looked up): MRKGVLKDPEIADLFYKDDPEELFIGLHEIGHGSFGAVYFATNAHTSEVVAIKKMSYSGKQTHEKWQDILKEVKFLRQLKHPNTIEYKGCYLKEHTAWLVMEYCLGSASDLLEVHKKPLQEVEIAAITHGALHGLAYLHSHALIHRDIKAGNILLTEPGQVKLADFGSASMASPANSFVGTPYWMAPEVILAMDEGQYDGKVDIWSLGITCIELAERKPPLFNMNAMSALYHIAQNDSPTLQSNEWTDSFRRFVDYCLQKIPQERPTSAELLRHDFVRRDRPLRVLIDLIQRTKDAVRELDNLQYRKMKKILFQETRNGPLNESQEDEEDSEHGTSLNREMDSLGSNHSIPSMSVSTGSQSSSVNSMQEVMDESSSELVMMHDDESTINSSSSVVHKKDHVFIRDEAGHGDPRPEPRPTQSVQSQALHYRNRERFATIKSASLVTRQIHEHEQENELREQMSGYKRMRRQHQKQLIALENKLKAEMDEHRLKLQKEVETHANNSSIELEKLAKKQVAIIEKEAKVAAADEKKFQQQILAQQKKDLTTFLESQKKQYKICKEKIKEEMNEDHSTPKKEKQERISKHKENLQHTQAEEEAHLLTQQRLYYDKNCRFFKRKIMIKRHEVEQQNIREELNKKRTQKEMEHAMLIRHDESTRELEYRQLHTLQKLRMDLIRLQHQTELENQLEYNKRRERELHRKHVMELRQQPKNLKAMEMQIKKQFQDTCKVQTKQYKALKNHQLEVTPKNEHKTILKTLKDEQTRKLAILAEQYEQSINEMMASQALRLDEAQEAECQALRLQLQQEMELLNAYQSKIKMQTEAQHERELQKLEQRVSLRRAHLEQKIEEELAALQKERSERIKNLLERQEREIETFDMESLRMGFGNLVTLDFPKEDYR

Set 1 — host: human; medium: microsomes or S9; concentration: 2 µM; time: 0.5 h
For CCc1nccn1-c1cc(C)nc2c(-c3ccc(Cl)cc3)cnn12, the remaining compound was > 100%.
The remaining compound of CCOc1cc(CNCCc2ccc(S(N)(=O)=O)cc2)ccc1OCc1ccccc1 is reported as 55.2%.
COCCCNC(=O)N1Cc2c(sc3c2CCCC3)-n2cccc2C1c1cc(F)cc(F)c1 (stereo not shown) gave a remaining compound of 2.25%.
Cc1cc(C)c(NC(=O)CN(C)S(=O)(=O)c2ccc3[nH]c(=O)ccc3c2)c(C)c1 gave a remaining compound of > 100%.
The remaining compound of CC(C)n1ncc2c1NC(=O)CC21C(=O)Nc2ccccc21 (stereo not shown) is reported as 18.1%.
For CC1CCC(C)N1C(=O)c1cc(Br)nn1-c1ncccc1Cl (stereo not shown), the remaining compound was 11.7%.
The remaining compound of Nc1ncnc2c1c(-c1cccc(OCc3ccccc3)c1)cn2C1CC(CN2CCCC2)C1 (stereo in doubt) is reported as 89.9%.
CC(C)(C)OC(=O)NC1CCN(c2nnc(Cl)c3ccccc23)CC1 gave a remaining compound of 36.8%.

Set 2 — observed: cell-free assay; method: competition with immobilised ligand; concentration: 1 µM
SMILES: CO[C@@H](C)c1c(Nc2ccc([C@H](N(C)C(=O)C3CCS(=O)(=O)CC3)C(F)(F)F)cc2)cnc2cc(Cl)nn12
For Ephrin type-A receptor 8 (EPHA8, Homo sapiens, UniProt P29322): remaining binding read 91%.
For Inhibitor of nuclear factor kappa-B kinase subunit alpha (CHUK, Homo sapiens, UniProt O15111): remaining binding read 100%.
It gave 100% for remaining binding (Serine/threonine-protein kinase N2 (PKN2, Homo sapiens, UniProt Q16513)).
The remaining binding was 60% (Dual specificity mitogen-activated protein kinase kinase 5 (MAP2K5, Homo sapiens, UniProt Q13163)).
For Epidermal growth factor receptor (EGFR, Homo sapiens, UniProt P00533, del746-750): remaining binding read 98%.
For Ribosomal protein S6 kinase alpha-5, N-terminal kinase domain (RPS6KA5, Homo sapiens, UniProt O75582): remaining binding read 86%.
The remaining binding was 74% (Fibroblast growth factor receptor 1 (FGFR1, Homo sapiens, UniProt P11362)).
Serine/threonine-protein kinase PLK1 (PLK1, Homo sapiens, UniProt P53350) — remaining binding: 77%.
For Ribosomal protein S6 kinase beta-1 (RPS6KB1, Homo sapiens, UniProt P23443): remaining binding read 100%.
Serine/threonine-protein kinase ULK3 (ULK3, Homo sapiens, UniProt Q6PHR2) — remaining binding: 94%.
It gave 59% for remaining binding (Receptor-type tyrosine-protein kinase FLT3 (FLT3, Homo sapiens, UniProt P36888, D835V)).
It gave 100% for remaining binding (Epidermal growth factor receptor (EGFR, Homo sapiens, UniProt P00533, L861Q)).
The remaining binding was 100% (Serine/threonine-protein kinase TAO3 (TAOK3, Homo sapiens, UniProt Q9H2K8)).
The remaining binding was 100% (Serine/threonine-protein kinase 26 (STK26, Homo sapiens, UniProt Q9P289)).

Set 3 — organism: Sarcocystis neurona; observed: parasite growth; concentration: 10 µM; notes: secondary screen
With Cc1cccc(CN2CCN(C(c3ccccc3)c3ccc(Cl)cc3)CC2)c1.Cl.Cl (stereo not shown) the inhibition was -52.2%.
For CCCCNc1cc(C(=O)O)cc(S(N)(=O)=O)c1Oc1ccccc1, the inhibition was -26.9%.
The inhibition of CC(COc1ccccc1)N(CCCl)Cc1ccccc1 (stereo not shown) is reported as -28.6%.
With CC1(C)S[C@@H]2[C@H](NC(=O)[C@H](N)c3ccc(O)cc3)C(=O)N2[C@H]1C(=O)O the inhibition was -27%.
COc1ccnc(C[S+]([O-])c2nc3ccc(OC(F)F)cc3[nH]2)c1OC (stereo not shown) gave an inhibition of -92.6%.
C[C@H]1COc2c(N3CCN(C)CC3)c(F)cc3c(=O)c(C(=O)O)cn1c23 gave an inhibition of -8.4%.
CC12CC3CC(C)(C1)CC(N)(C3)C2 gave an inhibition of -32.3%.

Set 4 — dose: dose not given; reference: vehicle
SMILES: CC(=O)N[C@@H](Cc1c[nH]c2ccccc12)C(=O)N[C@@H](CCC(=O)C=[N+]=[N-])C(=O)OC(C)C
It gave -1.4 for “log2 fold change” (item: indolelactate; mouse, EL4 tumour-bearing, EL4 tumour).
The “log2 fold change” was -1.08 (item: N2-acetyllysine; mouse, EL4 tumour-bearing, EL4 tumour).
The “log2 fold change” was 0.203 (item: aspartate; mouse, EL4 tumour-bearing, EL4 tumour).
item: fructose 6-phosphate; mouse, EL4 tumour-bearing, EL4 tumour — “log2 fold change”: 0.662.
It gave 2.06 for “log2 fold change” (item: cysteine-glutathione disulfide; Mus musculus, EL4 tumour).
For item: urea; mouse, EL4 tumour-bearing, EL4 tumour: “log2 fold change” read 0.802.
For item: beta-hydroxyisovalerate; mouse, EL4 tumour-bearing, EL4 tumour: “log2 fold change” read -0.106.
For item: FAD; mouse, EL4 tumour, tumour: “log2 fold change” read -0.0242.
